Results gathered from unrelated publications.
Protocols differ between the studies behind these lines. ± gives the spread as reported.

`C[C@H]1CN(C(=O)CC#N)[C@]12CCN(c1ncnc3[nH]ccc13)C2` gave a t1/2 of 270 min (healthy Japanese males; oral, 100 mg single dose, mean).
`C[C@@H](NC(=O)N1C(=O)[C@H](Cc2ccnc(N)c2)[C@H]1C(=O)O)C1CCCCC1` has a t1/2 of 69 min (UPLC-MS/MS; healthy adult Chinese volunteers, plasma; continuous intravenous infusion, 0.6 mg/kg/h, day 6 of 5-day infusion, mean).
`CCc1nc(C(N)=O)c(Nc2ccc(N3CCC(N4CCN(C)CC4)CC3)c(OC)c2)nc1NC1CCOCC1` has a t1/2 of 9120 min (LC-MS/MS; relapsed/refractory AML patients, plasma; oral, 40 mg once daily, cycle 1 day 15, median, from accumulation ratio).
`CCN(CC)CCNC(=O)c1cc(S(C)(=O)=O)ccc1OC` has a t1/2 of ~6280 min (human liver microsomes; 2 µM, pH 7.4, approximate).
The t1/2 of `COc1ccc2[nH]c([S+]([O-])Cc3ncc(C)c(OC)c3C)nc2c1` (stereo not drawn) is reported as 47.4 ± 18 min (healthy Chinese volunteers, CYP2C19 rapid metabolizers; oral, 20 mg, fed).
`CS(=O)(=O)c1cnc(NS(=O)(=O)c2ccc(N)cc2)nc1.Cl` has a t1/2 of ~1520 min (human liver microsomes; 2 µM, pH 7.4, approximate).
With `C(/NC1CCCCC1)=C1/N=C(c2ccc[nH]2)C2=C1CCCC2` the t1/2 was 26.7 min (pooled human liver microsomes; 1 µM, pH 7.4).
For `C[C@@H](N)C1CCN(S(=O)(=O)c2cccc3cnccc23)CC1`, the t1/2 was 31.2 min (healthy volunteers, fasted, plasma; oral, 25 mg).
For `O=C(Nc1cnccc1Cl)N1CCN(Cc2ccc3c(c2)OC(F)(F)O3)CC1`, the t1/2 was 846 min (healthy young men, plasma; oral, 75 mg once daily, day 10).
